Measured values pooled from the literature.
Every numbered part comes from another study and shows a few of its results, in no order.

Series 1
Target: Interferon regulatory factor 5, full length, phosphomimetic (IRF5, Homo sapiens, UniProt Q13568-2, residues 1-514, K96S/S451D/S453D/S456D/S462D)
Method: protein-binding microarray
Molecule type: double-stranded DNA, one strand shown
Matrix: in vitro
Concentration: 250 nM
Notes: 60-bp whole probe
With: salmon DNA 0.4 mg/ml
Relative to: random background probes
Direction: higher = stronger binding
All sequences stand within: GCCTAGCAC … GTCTTGATTCGCTTGACGCTGCTG
| Oligonucleotide | log fluorescence |
| --- | --- |
| TTAGGTTTCGGTATCGGTTCGTGCTAG | 11.1 z-score |
| TCATTTTCGTTTTTATTATTGTGCTAG | 8.11 z-score |
| GAAGATTTCAATTAGAAAAAGTGCTAG | 1.12 z-score |
| GACTATCTCAGACTGGAGACGTGCTAG | -0.164 z-score |
| TTAGGTCTCCTTCCCCTTTAGTGCTAG | -0.203 z-score |
| GACGGACTGGGTTTCAGGACGTGCTAG | 0.126 z-score |
| TTAGGTATTCTTTTCCTTTAGTGCTAG | 0.56 z-score |
| GACGGTATCCTCATCCTGACGTGCTAG | -0.185 z-score |
| CAGGGAATTCACCTGCTGACGTGCTAG | -0.279 z-score |
| TTAGGTATCGACTATCGATTAGTGCTA | 7.34 z-score |
| TACGGTATCGGTATCGGGACGTGCTAG | 6.44 z-score |
| GACGGTTTAGGTATCGGGACGTGCTAG | 1.24 z-score |
| TCATATATTATATATTTAACTGTGCTA | 1.22 z-score |
| TCATCATTTTCTCTGTTACTGTGCTAG | 1.55 z-score |
| TCACTTTTTTTTCTTTAACTGTGCTAG | 1.41 z-score |
| TTAGGTCTGGGACTGGGTTAGTGCTAG | -0.461 z-score |
| GACGGCTTCGGTCTCGGGACGTGCTAG | 0.195 z-score |
| GACGGTTTCGACACTGGGGAGGTGCTA | 4.64 z-score |
| TTAGAACTGCGTCTCGATTAGTGCTAG | -0.155 z-score |

Series 2
Target: RING finger protein unkempt homolog, zinc fingers 1-6, GST-SBP tag (UNK, Homo sapiens, UniProt Q9C0B0, residues 30-357)
Method: RNA Bind-n-Seq
Molecule type: RNA
Matrix: in vitro
Concentration: not given
Notes: RNA with constant flanks, ends assumed
Relative to: input RNA pool
Direction: higher = stronger binding
All sequences stand within: GGGAGUUCUACAGUCCGACGAUC … CAACAGAGGAUUGAGCAUCA
Construct (chain): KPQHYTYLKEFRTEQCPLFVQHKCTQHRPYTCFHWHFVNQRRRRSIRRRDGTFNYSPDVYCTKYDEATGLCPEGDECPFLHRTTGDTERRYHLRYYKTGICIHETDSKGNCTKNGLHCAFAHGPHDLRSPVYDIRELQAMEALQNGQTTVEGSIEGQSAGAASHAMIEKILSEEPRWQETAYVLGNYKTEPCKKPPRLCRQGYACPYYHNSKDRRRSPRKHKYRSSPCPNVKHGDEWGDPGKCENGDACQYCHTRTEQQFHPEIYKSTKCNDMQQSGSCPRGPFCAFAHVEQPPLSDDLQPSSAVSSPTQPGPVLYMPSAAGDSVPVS
| Oligonucleotide | bound/input enrichment [ratio] |
| --- | --- |
| UUCCCUCGGUUCCAGUCUUCCCUUUAAAAGCCUGUGGCAUUUUUCCUCCUUCUCCCUAACUUCCGAAAUGUUGUACUUGGCUAUUUUGAUUAGGGAAGAGGGAUGUGGUCUCUGAUCUCU | 0.109 |
| GCGGUCAUUUUCGGGCCUGAAGGGACCCCGUUUGAGGAUGGAACAUUUAAACUUACAACCGAAUUCACUGAAGAAUAUCCAAAUAAACCACCUACAGUUAGAUUUGUCUCUAAGAUGUUC | 0.689 |
| AAUGUUCUCGAUGCCAAUCUCUGCUUGAAAGGAGAAGACUUGGAUUCUCAGGUUGGAGUAACCGAUUUUUCCCUCUACCUUAAGGAUGUGCAGGAUCUUGAUGGUGGCAAGGAGCAUGAA | 0.282 |
| GACAGGACUGCUUUGGAUACUAUCAAGGAACAAACACAAAGUGGUGGUGACCUUCGGAGCCGCUCACAGCCCACAGCCGCCAGCGCUCCUCAGAGCUUGAGCAGUCAACGGCGGCUGGUC | 0.112 |
| AUAUCUUAUUGCCAUAAACUCCAUGUGGUCCACAGAGACUUGAAACCAGAGAAUGCCGUCUUUUUUGAAAAACAAGGUCUUGUGAAGUUGACAGACUUUGGCUUCAGCAACAAAUUUCAG | 0.101 |
| AUACAUUCUAAGGGAGCACAUGGUGAAGGUAAUUCAGUGUCAUUGGAUUUUCAGAAUUCCUCCGUGUCCAAACCAGACCCACCUCCAUCUCAGAAUAAGCCAGCAACUUUCAGACCACCA | 0.27 |
| GGUGCUACACGAAUCCCUGCGGUAAAAGAGAAGAUCAGCAAAUUUUUCGGUAAAGAACUCCGUACAACAUUAAAUGCUGAUGAAGCUGUCACUCGAGGCUGUGCAUUGCAGUGUGCCAUC | 0.594 |
| UUUCAUCUUUUGGAGUUAGAAAAGGUCCACGAACUGUGCGAUAACUUCUGCCACCGAUACAUCCGCUGUUUGAAGGGGAAAAUGCCCAUCGACCUCGUCAUUGAUGAAAGAGACGGCAGC | 0.0718 |

Series 3
Target: Histone acetyltransferase KAT6A, both winged helices, GST fusion (KAT6A, Homo sapiens, UniProt Q92794, residues 1-181)
Method: protein binding microarray
Molecule type: double-stranded DNA, one strand shown
Matrix: in vitro
Concentration: not given
Notes: 8-mer, flanks averaged, mean of 2 arrays, mostly near background
Relative to: not given
Direction: higher = stronger binding
Target sequence (chain): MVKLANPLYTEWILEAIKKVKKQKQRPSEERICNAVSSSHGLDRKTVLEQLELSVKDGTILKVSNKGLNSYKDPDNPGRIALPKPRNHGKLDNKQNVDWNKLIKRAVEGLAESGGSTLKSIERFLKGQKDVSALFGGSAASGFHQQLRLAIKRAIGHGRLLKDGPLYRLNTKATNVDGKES
| Oligonucleotide | E-score |
| --- | --- |
| CATCCATC | -0.121 |
| GCTCATTA | -0.0476 |
| GGCAAACA | 0.0994 |
| ATGAACTC | -0.166 |
| GTCTACGA | -0.114 |
| CCAGCCGC | 0.26 |
| GATGCACC | 0.0102 |
| ACCGAATC | 0.0468 |
| GTATCTTA | -0.0308 |
| AGCCTATC | -0.0646 |
| ACGTTCAA | 0.0774 |
| GCGTGGCC | 0.15 |
| CCCGTGCC | 0.203 |
| AGATATCA | -0.0271 |
| AATGGAAC | -0.0579 |
| CTTATGGC | -0.0592 |

Series 4
Target: RNA binding protein fox-1 homolog 2, RRM domain, GST-SBP tag (RBFOX2, Homo sapiens, UniProt O43251-10, residues 100-194)
Method: RNA Bind-n-Seq
Molecule type: RNA
Matrix: in vitro
Concentration: 365 nM
Notes: natural RNA segment, single round, ends assumed
Relative to: no-protein control
Direction: higher = stronger binding
All sequences stand within: GGGAGUUCUACAGUCCGACGAUC … UGGAAUUCUCGGGUGCCAA
| Oligonucleotide | RBNS enrichment (R) |
| --- | --- |
| UGGGCCUGGAGUGUCCCUGCUCCAGCCCUGCCAGGGACAGGUUUCUCCCUGGAUACUCUUGGCCCACCGCAGAUCUGUAGCCAGUCAGAGGAGGAGGAGAAGGAGCCCCU | 0.478 |
| CAGAUGGCUGUACAACAGGUUGUAGGGCUGGUAGUAUGAGGUGCUUGGGAAGUUUUGUUGGGUCAAGAAGAGAGAACUCUGUUCUCGCACCACCGGGAUCUGUCCUGCAA | 1.14 |
| GGGUAAGCAGUCCUGUGAGUGGCGCAUGAACGCUGGAGCUUAUUCCGCCGCCUGCCCCAGUGUGGGGGGAGAUACCUUUACCAUGAACUUACAGAAUUAAAGAUGGCCCA | 3.75 |
| AUGUGAGGCACCGUUUUUCUCGUCGCUUGCCAAUCUGUUUUUUAAAGGAUCAGGCUCGUAGGGAGCAGGAUCAUGCCAGAAAUAGGGAUGGAAGUGCAUCCUCUGGGAAA | 0.374 |
| CCUCUGCCCUUCACACUCUCCUCCAAAAGAGCCUCCAUCUGUAAGGAAGCAGGUCUCCGCGAGGGGUUUCUUUCCAUGUGUUUUCCUCCUGUUGUUUUAGAACUUUUUUA | 0.755 |
| GAGCUUUGCCUCGCCUCCGCCUGCGCUCCCCUCCAGGGUCCUUCUGCUGGCUGCGGACUCGGCCCACCACUGCUGUCUGACGCUUUUCUUCCUGCCCCCUCUGAGGCCUG | 0.364 |
| ACUUCUAGAAUUACAUGGCUGCACCACUUCACCCAGCCUAUGUAGUUUUAUUUUAUAAAUGACACUGUCUUCCAGAAUUCCUUUCUUUAACAGAUUUCUUUUUCUUACUU | 0.698 |
| GACUGAACUUUUCUCAUAUUUUCACAUUUCUCAGUCCUGAAGAAUAAGGAAAACAAAGCGACGCCUAUUUUGUAUAAAGUUUCCGACUCCGUCUUGGCCAUGUCUAGUAA | 0.456 |
